# Results gathered from unrelated publications.
# Parts stem from different laboratories: compare values within a part only. Changes are numbered by the printed parent chain.

# Sample 1 — target: FOSL2, bZIP domain (human); method: DHFR protein complementation; sample: yeast; baseline: wild-type JUN-FOS pair; reading: higher = stronger binding
# Setting: single substitutions, most at no-binding floor
# Starting sequence: JUN, bZIP domain (human); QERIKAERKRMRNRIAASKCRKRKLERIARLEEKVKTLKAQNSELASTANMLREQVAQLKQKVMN; partner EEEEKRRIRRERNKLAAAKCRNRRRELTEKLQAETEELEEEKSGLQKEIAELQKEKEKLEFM
Substitution,binding fitness [natural log]
V35W,-0.358
K36P,-1.26
A40Q,0.255
T48K,0.0709
R30F,0.0939
I28D,-0.218
K36H,0.00905

# Sample 2 — method: protein-binding microarray; molecule type: double-stranded DNA, one strand shown; sample: in vitro; tested at: 250 nM; setting: 60-bp whole probe; together with: salmon DNA 0.4 mg/ml; baseline: random background probes; reading: higher = stronger binding; shared flanks, not repeated: GCCTAGCAC … GTCTTGATTCGCTTGACGCTGCTG
# Target: Interferon regulatory factor 5, full length, phosphomimetic (IRF5, Homo sapiens, UniProt Q13568-2, residues 1-514, K96S/S451D/S453D/S456D/S462D)
Sequence,log fluorescence
ATAAAAGAACTCCTGGGGGAGTGCTAG,0.462 z-score
CTAATTTTTACTTTCTGAATGTGCTAG,3.76 z-score
TTAGGTCTCCTTTTCGTTTAGTGCTAG,1.09 z-score
GACGAACTGAGGCTGGAGACGTGCTAG,-0.72 z-score
TTAGGACTGGGAATCGGTTAGTGCTAG,0.101 z-score
TTAGATTTCGGGTCTCGATTAGTGCTA,4.89 z-score
TTAGATCTCAGTATCGATTTGTGCTAG,6.15 z-score
GACGATATCGGGTATCGAAACGTGCTA,4.68 z-score
TTAGGTTTCGGGACAGGGTTAGTGCTA,6.79 z-score

# Sample 3 — target: CCNB1, cyclin fold, Cln2 fusion (human); method: yeast growth competition, sequencing; sample: yeast; setting: weak parent motif; baseline: not given; reading: higher = stronger binding
# Starting sequence: CDC6 docking peptide (human); TLKGRRLVFDNQL
Substitution,normalised enrichment score
TLKGRRLVFDRQL [N11R],0.639
TLKDRRLVFDNQL [G4D],-0.102
TLRGRRLVFDNQL [K3R],0.266
TLKGRRLVADNQL [F9A],0.155
HLKGRRLVFDNQL [T1H],0.264
TLKGRRLVFDNFL [Q12F],0.00864
TLMGRRLVFDNQL [K3M],0.332
TLKGRRLVFDNKL [Q12K],0.554
TLKGRRLVFHNQL [D10H],-0.372
TGKGRRLVFDNQL [L2G],0.297

# Further values, each from its own experiment
Molecule,target,test,test system,conditions,how to read,measurement,value
"PhoQ, residues 284 288 289 292 302 303 SCEHLI","PhoP, residues 12 14 15 18 19 GQAIL (Escherichia coli, UniProt P23836)","Sort-seq, refers to: YFP reporter",E. coli,"PhoQ-PhoP variant library, together with: 10 µM Mg2+","baseline: high Mg2+ state, higher = stronger signaling",fold induction,23.8

# Excerpt of the above (sample 3):
Substitution,normalised enrichment score
TLMGRRLVFDNQL [K3M],0.332
TLKGRRLVADNQL [F9A],0.155
TLKGRRLVFHNQL [D10H],-0.372
TLKDRRLVFDNQL [G4D],-0.102
